Experimental data collected from several papers.
Protocols differ between the studies behind these lines. “And” joins repeats or separate records; there may be more than shown.
Target: Dual specificity mitogen-activated protein kinase kinase 3 (MAP2K3, Homo sapiens, UniProt P46734)

SMILES | test | test system | setting | how to read | endpoint | result
CNC1C[S+]2CC[S+]3CC[S+](C1)[Ru-4]321([N]=C=S)[n]2c3ccc(OC)cc3c3c4c(c5cc(F)c[n+]1c5c32)C(=O)NC4=O (stereo not shown) | KinomeScan |  | 0.1 µM | baseline: untreated | remaining binding | 87%
CC(C)=CC1OC(C)(C)C2C=C3C(=O)C(Cl)=CC(O)C3C3C(O)C4OC4C(=O)C132 (stereo not shown) | cell-free assay, competition with immobilised ligand |  | 10 µM |  | remaining binding | 73%
C=CC(=O)N1CCc2ccc(-n3c(=O)ccc4cnc5ccc(-c6cnn(C)c6)cc5c43)cc21 | KINOMEscan |  | 1 µM | baseline: DMSO control | remaining binding | 70%
Cc1cccc(O[C@H]2CCC[C@@H](C(C)CNCc3ccncc3)C2)c1 (relative stereo) | enzyme activity, inhibitor |  | 1 µM |  | inhibition | -4%
Nc1ncc(-c2cc(-c3cnn(CC(F)(F)F)c3)ncc2F)nc1C(=O)NC1CNCC(F)C1 (stereo not shown) | enzyme activity |  | 1 µM | baseline: DMSO control | remaining activity | 117%
O=C(Cc1ccc(OCc2ccccc2)cc1)NC1(C(=O)O)CCN(C(=O)c2ccc(-c3cccc(Cl)c3)cc2)CC1 | enzyme activity, inhibitor |  | 10 µM |  | activity vs control | 113%
COc1c(Cl)cccc1Nc1c(-c2ccncc2C#C[C@@]2(C)CCCN2C(=O)/C=C/CN(C)C)[nH]c2c1C(=O)NCC2 | binding, competition with immobilised ligand |  | 3 µM |  | remaining binding | 69%
COc1cc(Nc2nccc(-c3cnn4nc(OC)ccc34)n2)cc(C(F)(F)F)c1 | binding, competition with immobilised ligand |  | 1 µM |  | remaining binding | 68%
C=CC(=O)N1CCCC(n2c(=O)c3ncccc3n(Cc3ccc(Oc4ccccc4)cc3)c2=O)C1 (stereo not shown) | cell-free assay, competition with immobilised ligand |  | 1 µM |  | remaining binding | 70%
Nc1ncc2c(n1)-c1c([nH]c3ccc(C4=CCOCC4)cc13)CCC2 | binding, competition with immobilised ligand |  | 1 µM |  | remaining binding | 84%
CCN1CCN(Cc2ccc(C(=O)Nc3ccc(C)c(NCc4cnc5[nH]ccc5c4OC)c3)cc2C(F)(F)F)CC1 | binding, competition with immobilised ligand |  | 1 µM |  | remaining binding | 59%
Cc1cnc2nc1Nc1cccc(c1)COC/C=C/COCc1cc(ccc1OCCN1CCOCC1)N2 | binding, competition with immobilised ligand |  | 0.1 µM |  | remaining binding | 75%
N[C@H]1CC[C@H](Nc2nccc(-c3cccnc3Oc3ccc(NC(=O)NC4CC4)c4ccccc34)n2)CC1 | kinobead competition pulldown | HEK293/HCT116 lysate mixture | 10 µM, 1 h, 4 °C | lower = stronger competition | log2 LFQ intensity | 18.2 and 18.8 and 22 and 21.6
Cc1ccc(-c2c(/C=C(\C#N)C(=O)NC(C)C)n(CCCO)c3ncnc(N)c23)cc1 | cell-free assay, competition with immobilised ligand |  | 1 µM |  | remaining binding | 93%
CN1CC[C@@H](COc2cnc(C#N)cc2-c2ccn3nc(NC(=O)C4CC4)cc3c2)C1 | enzyme activity, inhibitor |  | 1 µM |  | inhibition | -3%
COc1cc(Nc2nc(C)cc(-c3cnn4nc(OC)ccc34)n2)cc(C(F)(F)F)c1 | inhibitor |  | 1 µM, MEK3 | baseline: control | remaining activity | 86%
Cc1c[nH]c2nccc(-c3ccc(C(=O)N[C@@H]4c5c(F)cc(C(F)F)cc5C[C@@H]4O)cn3)c12 | binding, competition with immobilised ligand |  | 3 µM |  | remaining binding | 4.5%
CNC(=O)C1CCN(c2cc(C)c(F)cc2NC(=O)c2ccc(-c3cc(O)ccc3C)c(C)c2)CC1 | binding, competition with immobilised ligand |  | 1 µM |  | remaining binding | 99%
CCn1cc(C(=O)O)c(=O)c2c(N)c(F)c(NC3CCCCC3)cc21 | kinase activity |  | 0.1 µM, added: ATP at Km |  | inhibition | -15.3%

Some of these lines once more:
SMILES | test | test system | setting | how to read | endpoint | result
CNC1C[S+]2CC[S+]3CC[S+](C1)[Ru-4]321([N]=C=S)[n]2c3ccc(OC)cc3c3c4c(c5cc(F)c[n+]1c5c32)C(=O)NC4=O (stereo not shown) | KinomeScan |  | 0.1 µM | baseline: untreated | remaining binding | 87%
CC(C)=CC1OC(C)(C)C2C=C3C(=O)C(Cl)=CC(O)C3C3C(O)C4OC4C(=O)C132 (stereo not shown) | cell-free assay, competition with immobilised ligand |  | 10 µM |  | remaining binding | 73%
C=CC(=O)N1CCc2ccc(-n3c(=O)ccc4cnc5ccc(-c6cnn(C)c6)cc5c43)cc21 | KINOMEscan |  | 1 µM | baseline: DMSO control | remaining binding | 70%
